Measured values of several laboratories.
Protocols differ between the studies behind these lines. Values joined by “and” are separate records of one study, mostly repeats; a detail may differ. ± marks the error that the study gave.
U2AF2: U2AF2 148-342 (Homo sapiens, UniProt P26368)
UniProt P26368, sequence (whole entry, looked up): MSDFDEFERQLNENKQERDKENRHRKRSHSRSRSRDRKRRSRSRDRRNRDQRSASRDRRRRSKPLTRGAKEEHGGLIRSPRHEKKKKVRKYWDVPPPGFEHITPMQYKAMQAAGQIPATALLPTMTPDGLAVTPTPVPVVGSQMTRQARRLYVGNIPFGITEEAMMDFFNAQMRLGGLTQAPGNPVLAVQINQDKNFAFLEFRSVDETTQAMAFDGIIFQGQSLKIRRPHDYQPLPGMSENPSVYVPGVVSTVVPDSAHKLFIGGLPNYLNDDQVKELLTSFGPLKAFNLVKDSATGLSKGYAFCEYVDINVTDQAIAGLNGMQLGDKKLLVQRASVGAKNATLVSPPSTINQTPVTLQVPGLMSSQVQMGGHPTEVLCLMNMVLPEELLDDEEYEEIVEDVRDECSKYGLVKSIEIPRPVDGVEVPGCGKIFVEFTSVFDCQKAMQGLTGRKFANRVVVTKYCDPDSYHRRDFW
B1: human CDC5L; sequence looked up; chain MPRIMIKGGVWRNTEDEILKAAVMKYGKNQWSRIASLLHRKSAKQCKARWYEWLDPSIKKTEWSREEEEKLLHLAKLMPTQWRTIAPIIGRTAAQCLEHYEFLLDKAAQRDNEEETTDDPRKLKPGEIDPNPETKPARPDPIDMDEDELEMLSEARARLANTQGKKAKRKAREKQLEEARRLAALQKRRELRAAGIEIQKKRKRKRGVDYNAEIPFEKKPALGFYDTSEENYQALDADFRKLRQQDLDGELRSEKEGRDRKKDKQHLKRKKESDLPSAILQTSGVSEFTKKRSKLVLPAPQISDAELQEVVKVGQASEIARQTAEESGITNSASSTLLSEYNVTNNSVALRTPRTPASQDRILQEAQNLMALTNVDTPLKGGLNTPLHESDFSGVTPQRQVVQTPNTVLSTPFRTPSNGAEGLTPRSGTTPKPVINSTPGRTPLRDKLNINPEDGMADYSDPSYVKQMERESREHLRLGLLGLPAPKNDFEIVLPENAEKELEEREIDDTYIEDAADVDARKQAIRDAERVKEMKRMHKAVQKDLPRPSEVNETILRPLNVEPPLTDLQKSEELIKKEMITMLHYDLLHHPYEPSGNKKGKTVGFGTNNSEHITYLEHNPYEKFSKEELKKAQDVLVQEMEVVKQGMSHGELSSEAYNQVWEECYSQVLYLPGQSRYTRANLASKKDRIESLEKRLEINRGHMTTEAKRAAKMEKKMKILLGGYQSRAMGLMKQLNDLWDQIEQAHLELRTFEELKKHEDSAIPRRLECLKEDVQRQQEREKELQHRYADLLLEKETLKSKF
B2: PP6 regulatory subunit 2 (human); sequence looked up; chain MFWKFDLNTTSHVDKLLDKEHVTLQELMDEDDILQECKAQNQKLLDFLCRQQCMEELVSLITQDPPLDMEEKVRFKYPNTACELLTCDVPQISDRLGGDESLLSLLYDFLDHEPPLNPLLASFFSKTIGNLIARKTEQVITFLKKKDKFISLVLKHIGTSALMDLLLRLVSCVEPAGLRQDVLHWLNEEKVIQRLVELIHPSQDEDRQSNASQTLCDIVRLGRDQGSQLQEALEPDPLLTALESQDCVEQLLKNMFDGDRTESCLVSGTQVLLTLLETRRVGTEGLVDSFSQGLERSYAVSSSVLHGIEPRLKDFHQLLLNPPKKKAILTTIGVLEEPLGNARLHGARLMAALLHTNTPSINQELCRLNTMDLLLDLFFKYTWNNFLHFQVELCIAAILSHAAREERTEASGSESRVEPPHENGNRSLETPQPAASLPDNTMVTHLFQKCCLVQRILEAWEANDHTQAAGGMRRGNMGHLTRIANAVVQNLERGPVQTHISEVIRGLPADCRGRWESFVEETLTETNRRNTVDLVSTHHLHSSSEDEDIEGAFPNELSLQQAFSDYQIQQMTANFVDQFGFNDEEFADQDDNINAPFDRIAEINFNIDADEDSPSAALFEACCSDRIQPFDDDEDEDIWEDSDTRCAARVMARPRFGAPHASESCSKNGPERGGQDGKASLEAHRDAPGAGAPPAPGKKEAPPVEGDSEGAMWTAVFDEPANSTPTAPGVVRDVGSSVWAAGTSAPEEKGWAKFTDFQPFCCSESGPRCSSPVDTECSHAEGSRSQGPEKASQASYFAVSPASPCAWNVCVTRKAPLLASDSSSSGGSHSEDGDQKAASAMDAVSRGPGREAPPLPTVARTEEAVGRVGCADSRLLSPACPAPKEVTAAPAVAVPPEATVAITTALSKAGPAIPTPAVSSALAVAVPLGPIMAVTAAPAMVATLGTVTKDGKTDAPPEGAALNGPV
B3: sequence looked up; chain MGRTYIVEETVGQYLSNINLQGKAFVSGLLIGQCSSQKDYVILATRTPPKEEQSENLKHPKAKLDNLDEEWATEHACQVSRMLPGGLLVLGVFIITTLELANDFQNALRRLMFAVEKSINRKRLWNFTEEEVSERVTLHICASTKKIFCRTYDIHDPKSSARPADWKYQSGLSSSWLSLECTVHINIHIPLSATSVSYTLEKNTKNGLTRWAKEIENGVYLINGQVKDEDCDLLEGQKKSSRGNTQATSHSFDVRVLTQLLLNSDHRSTATVQICSGSVNLKGAVKCRAYIHSSKPKVKDAVQAVKRDILNTVADRCEMLFEDLLLNEIPEKKDSEKEFHVLPYRVFVPLPGSTVMLCDYKFDDESAEEIRDHFMEMLDHTIQIEDLEIAEETNTACMSSSMNSQASLDNTDDEQPKQPIKTTMLLKIQQNIGVIAAFTVAVLAAGISFHYFSD
B4: PCBD1, human; sequence looked up; chain AGKAHRLSAEERDQLLPNLRAVGWNELEGRDAIFKQFHFKDFNRAFGFMTRVALQAEKLDHHPEWFNVYNKVHITLSTHECAGLSERDINLASFIEQVAVSMT
UniProt P21980, sequence (whole entry, looked up): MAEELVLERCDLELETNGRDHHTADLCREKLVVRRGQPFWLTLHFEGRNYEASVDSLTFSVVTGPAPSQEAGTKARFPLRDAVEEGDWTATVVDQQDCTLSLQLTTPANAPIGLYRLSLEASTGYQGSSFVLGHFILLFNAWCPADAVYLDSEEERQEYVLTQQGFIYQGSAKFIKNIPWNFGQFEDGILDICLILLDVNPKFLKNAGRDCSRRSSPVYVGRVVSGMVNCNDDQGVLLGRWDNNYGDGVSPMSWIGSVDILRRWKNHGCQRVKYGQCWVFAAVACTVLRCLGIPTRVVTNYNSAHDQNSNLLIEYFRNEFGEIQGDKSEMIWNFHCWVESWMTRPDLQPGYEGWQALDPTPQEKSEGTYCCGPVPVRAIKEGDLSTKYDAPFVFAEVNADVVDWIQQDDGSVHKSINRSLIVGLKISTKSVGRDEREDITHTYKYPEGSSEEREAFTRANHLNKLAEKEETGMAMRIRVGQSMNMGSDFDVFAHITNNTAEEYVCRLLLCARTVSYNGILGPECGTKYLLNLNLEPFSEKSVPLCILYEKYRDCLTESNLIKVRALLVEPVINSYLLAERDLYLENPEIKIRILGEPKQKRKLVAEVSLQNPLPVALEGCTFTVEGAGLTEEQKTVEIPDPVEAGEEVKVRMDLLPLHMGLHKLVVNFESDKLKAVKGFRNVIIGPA

cotadutide  metabolite level (metabolomics, item: hepatic glutamate; ob/ob mice on AMLN diet, NASH model, liver; dose not given): 1.54 ± 0.06 scaled intensity
difelikefalin  PGIC minimally worse (Japanese haemodialysis patients with pruritus; intravenous, 1.0 µg/kg, 8 weeks): 1.7%
UUCUUUUCU (ssRNA)  Kd (U2AF2; sequencing of bound RNA; RNA; motif only): 0.27 µM
human GAPDH  log2 fold change (CYB5R4 knockout human cells; PP4 interaction, 3xFLAG-PP4C IP-MS; concentration not given; baseline: CYB5R4 KO over parental): 2.61
NPDALPETLV  binding intensity (construct, MBP fusion, human SCRIB, PDZ 3-4; automated holdup; peptide, crude extract; concentration not given, uncorrected, unit not given; baseline: biotin control resin, higher = stronger binding): 0.354
milbemycin oxime  OD600 (Saccharomyces cerevisiae; cell growth; Pdr5 deleted, Cdr1 overexpressed; 2^-2.966 µg/mL, with: fluconazole 10 µg/mL): 0.025 and 0.026
ACAUUCUUC (ssRNA)  Kd (U2AF2; sequencing of bound RNA; RNA; motif only): 6.16 µM
DNA-PKcs (human)  log2 fold change (CYB5R4 knockout human cells; PP6 interaction, 3xFLAG-PP6C IP-MS; concentration not given; baseline: CYB5R4 KO over parental): 0.52
GSGAGICTIV  binding intensity (construct, MBP fusion, human SCRIB, PDZ 3-4; automated holdup; peptide, purified PDZ protein; concentration not given, unit not given; baseline: biotin control resin, higher = stronger binding): -0.0437
MTVCNASQRQAHAQATAVSL  selectivity ratio (H1993; phage binding; peptide; baseline: targeting over control phage): 4 ± 2.3
B1 (human CDC5L)  log2 fold change (CYB5R4 knockout human cells; PP4 interaction, 3xFLAG-PP4C IP-MS; concentration not given; baseline: CYB5R4 KO over parental): -3.57
colistin  MIC (Pseudomonas aeruginosa; broth microdilution; clinical isolate RKI-No_600/15): 2 µg/mL
GGGAGCAGGAGAGAGGUCAGAUGAACGAGAGAUGGUAGGCCUUUGAUGAUGCUCCUAUGCGUGCUAGUGUGA (ssRNA; 2'-fluoro pyrimidines)  relative binding (TGM2 2-687 (Homo sapiens, UniProt P21980); SPR; RNA; with: MgCl2 5 mM; higher = more binding): 127 RU
B2 (PP6 regulatory subunit 2)  log2 fold change (PP6C (human); co-immunoprecipitation, IP-MS; CYB5R4 knockout cells; concentration not given; baseline: CYB5R4 knockout over parental): -1.09
Peginesatide  phosphorylation level (UT7/EPO; tyrosine phosphorylation, LC-MS/MS phosphoproteomics, trypsin, item: STAT5A tyrosine 694; 10 nM, 15 min, with: 10 U/mL EPO; baseline: vehicle): 28.2 fold
GSGAGHETIV  binding intensity (construct, MBP fusion, human SCRIB, PDZ 3-4; automated holdup; peptide, purified PDZ protein; concentration not given, unit not given; baseline: biotin control resin, higher = stronger binding): 0.369
heparin sodium  aPTT time to Emax (human; intravenous infusion, 8 IU/kg/h, day 1 to 6): 84 h
B3  log2 fold change (CYB5R4 knockout human cells; PP6 interaction, 3xFLAG-PP6C IP-MS; concentration not given; baseline: CYB5R4 KO over parental): 0.1
epoetin alfa  mRNA level (UT7/EPO; microarray, item: GDF15 (probe 221577_x_at); 5 U/mL, 90 min, with: SCF 10 nM; baseline: vehicle): 5.1 fold
VMRLQSETSV  binding intensity (construct, MBP fusion, human SCRIB, PDZ 3-4; automated holdup; peptide, crude extract; concentration not given, corrected by standard peak, unit not given; baseline: biotin control resin, higher = stronger binding): 0.488
B4 (PCBD1, human)  log2 fold change (CYB5R4 knockout human cells; PP4 interaction, 3xFLAG-PP4C IP-MS; concentration not given; baseline: CYB5R4 KO over parental): 2.51
